# Assay results of several laboratories.
# Each line is one published result; not all experiments were run side by side.
# TMPRSS2: Transmembrane protease serine 2 (TMPRSS2, Homo sapiens, UniProt O15393)
# UniProt O15393, sequence (whole entry, looked up): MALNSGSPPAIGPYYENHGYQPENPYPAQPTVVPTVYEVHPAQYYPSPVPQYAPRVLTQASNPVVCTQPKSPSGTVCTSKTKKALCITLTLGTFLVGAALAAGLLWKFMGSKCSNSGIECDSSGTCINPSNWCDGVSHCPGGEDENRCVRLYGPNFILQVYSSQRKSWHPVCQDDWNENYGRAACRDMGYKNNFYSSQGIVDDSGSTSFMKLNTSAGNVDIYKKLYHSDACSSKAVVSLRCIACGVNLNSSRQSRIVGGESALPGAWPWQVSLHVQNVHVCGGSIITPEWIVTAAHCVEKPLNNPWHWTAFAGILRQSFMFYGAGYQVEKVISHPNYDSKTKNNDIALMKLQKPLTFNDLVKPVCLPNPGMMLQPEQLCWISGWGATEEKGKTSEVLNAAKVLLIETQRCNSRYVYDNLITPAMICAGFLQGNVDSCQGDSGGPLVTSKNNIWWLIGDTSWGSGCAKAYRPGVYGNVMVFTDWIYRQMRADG
# PFF0160c: Dihydroorotate dehydrogenase (quinone), mitochondrial (PFF0160c, Plasmodium falciparum, UniProt Q08210)
# UniProt Q08210, sequence (whole entry, looked up): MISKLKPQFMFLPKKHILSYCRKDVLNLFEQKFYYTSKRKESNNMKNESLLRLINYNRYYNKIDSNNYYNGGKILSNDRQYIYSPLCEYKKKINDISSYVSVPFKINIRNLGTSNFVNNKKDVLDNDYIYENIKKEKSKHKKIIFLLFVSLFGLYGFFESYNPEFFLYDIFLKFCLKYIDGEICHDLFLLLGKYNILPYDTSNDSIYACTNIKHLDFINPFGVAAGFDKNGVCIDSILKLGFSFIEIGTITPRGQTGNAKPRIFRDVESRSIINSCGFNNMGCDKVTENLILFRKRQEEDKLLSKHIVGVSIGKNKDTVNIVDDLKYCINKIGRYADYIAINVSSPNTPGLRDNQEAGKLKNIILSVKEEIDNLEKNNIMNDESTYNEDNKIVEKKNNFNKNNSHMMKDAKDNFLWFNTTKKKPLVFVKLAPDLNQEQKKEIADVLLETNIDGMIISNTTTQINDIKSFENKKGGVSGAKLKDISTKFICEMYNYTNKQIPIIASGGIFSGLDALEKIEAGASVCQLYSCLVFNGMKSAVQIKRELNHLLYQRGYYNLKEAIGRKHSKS
# UniProt Q8TDR2, sequence (whole entry, looked up): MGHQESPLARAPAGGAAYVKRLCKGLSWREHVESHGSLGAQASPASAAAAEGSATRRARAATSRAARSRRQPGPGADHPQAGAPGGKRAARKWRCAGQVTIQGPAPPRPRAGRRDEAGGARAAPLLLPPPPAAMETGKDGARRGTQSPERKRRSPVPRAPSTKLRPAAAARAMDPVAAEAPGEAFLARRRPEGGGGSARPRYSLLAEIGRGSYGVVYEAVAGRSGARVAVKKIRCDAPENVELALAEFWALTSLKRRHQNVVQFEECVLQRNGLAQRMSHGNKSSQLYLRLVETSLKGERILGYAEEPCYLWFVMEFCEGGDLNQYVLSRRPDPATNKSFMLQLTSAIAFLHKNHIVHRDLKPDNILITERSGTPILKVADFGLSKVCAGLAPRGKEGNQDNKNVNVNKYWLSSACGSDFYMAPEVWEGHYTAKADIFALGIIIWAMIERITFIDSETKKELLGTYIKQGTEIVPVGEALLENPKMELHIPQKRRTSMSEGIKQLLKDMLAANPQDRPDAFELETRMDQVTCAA
# UniProt Q9Y271, sequence (whole entry, looked up): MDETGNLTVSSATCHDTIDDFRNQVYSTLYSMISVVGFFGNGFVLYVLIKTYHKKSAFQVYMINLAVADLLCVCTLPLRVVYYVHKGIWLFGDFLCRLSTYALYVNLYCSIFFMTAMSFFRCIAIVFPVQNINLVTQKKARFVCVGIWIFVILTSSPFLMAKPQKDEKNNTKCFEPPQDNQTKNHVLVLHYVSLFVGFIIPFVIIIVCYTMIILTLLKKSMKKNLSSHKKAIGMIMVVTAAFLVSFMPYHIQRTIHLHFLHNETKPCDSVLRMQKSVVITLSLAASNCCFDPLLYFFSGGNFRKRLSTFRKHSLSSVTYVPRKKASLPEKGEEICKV
# UniProt P07711, sequence (whole entry, looked up): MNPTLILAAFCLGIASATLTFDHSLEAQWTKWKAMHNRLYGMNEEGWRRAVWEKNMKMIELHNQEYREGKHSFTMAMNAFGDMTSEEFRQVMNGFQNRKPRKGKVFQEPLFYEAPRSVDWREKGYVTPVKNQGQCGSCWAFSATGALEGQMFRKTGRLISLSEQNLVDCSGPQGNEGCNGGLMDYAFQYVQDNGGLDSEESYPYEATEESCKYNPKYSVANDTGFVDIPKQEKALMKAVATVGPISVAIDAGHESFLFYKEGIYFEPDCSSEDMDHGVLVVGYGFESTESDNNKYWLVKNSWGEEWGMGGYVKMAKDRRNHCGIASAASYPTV
# UniProt Q15418, sequence (whole entry, looked up): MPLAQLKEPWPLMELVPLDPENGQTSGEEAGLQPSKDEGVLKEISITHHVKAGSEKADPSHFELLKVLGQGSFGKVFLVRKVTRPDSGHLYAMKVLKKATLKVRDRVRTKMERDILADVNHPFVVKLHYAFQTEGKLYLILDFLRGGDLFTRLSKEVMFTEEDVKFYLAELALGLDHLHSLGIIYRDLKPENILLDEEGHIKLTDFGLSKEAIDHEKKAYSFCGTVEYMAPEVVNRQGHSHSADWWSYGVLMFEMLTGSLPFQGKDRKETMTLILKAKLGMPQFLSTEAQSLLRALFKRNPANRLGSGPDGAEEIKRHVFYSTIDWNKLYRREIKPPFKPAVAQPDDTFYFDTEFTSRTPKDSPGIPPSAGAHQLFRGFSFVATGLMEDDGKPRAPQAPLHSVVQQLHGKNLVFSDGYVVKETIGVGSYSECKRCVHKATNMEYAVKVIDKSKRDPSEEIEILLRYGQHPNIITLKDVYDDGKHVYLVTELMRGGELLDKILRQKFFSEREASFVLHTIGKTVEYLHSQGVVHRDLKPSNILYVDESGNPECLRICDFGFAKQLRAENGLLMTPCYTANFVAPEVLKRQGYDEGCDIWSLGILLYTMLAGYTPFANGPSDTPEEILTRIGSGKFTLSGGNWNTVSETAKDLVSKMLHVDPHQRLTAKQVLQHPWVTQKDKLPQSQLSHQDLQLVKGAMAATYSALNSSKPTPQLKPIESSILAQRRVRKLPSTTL
# UniProt P08588, sequence (whole entry, looked up): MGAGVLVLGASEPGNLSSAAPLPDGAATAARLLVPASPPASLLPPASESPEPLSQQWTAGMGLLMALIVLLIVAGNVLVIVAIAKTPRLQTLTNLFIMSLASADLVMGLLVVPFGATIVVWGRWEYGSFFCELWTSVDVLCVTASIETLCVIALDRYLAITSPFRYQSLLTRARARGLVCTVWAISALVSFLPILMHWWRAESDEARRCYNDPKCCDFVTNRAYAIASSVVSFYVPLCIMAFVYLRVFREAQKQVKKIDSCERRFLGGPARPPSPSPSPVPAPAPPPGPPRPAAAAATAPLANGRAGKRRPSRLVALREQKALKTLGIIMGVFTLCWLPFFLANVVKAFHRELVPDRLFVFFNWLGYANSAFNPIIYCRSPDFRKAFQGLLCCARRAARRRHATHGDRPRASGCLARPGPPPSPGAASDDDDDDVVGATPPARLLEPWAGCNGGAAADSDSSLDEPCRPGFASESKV
# UniProt Q9UKE5, sequence (whole entry, looked up): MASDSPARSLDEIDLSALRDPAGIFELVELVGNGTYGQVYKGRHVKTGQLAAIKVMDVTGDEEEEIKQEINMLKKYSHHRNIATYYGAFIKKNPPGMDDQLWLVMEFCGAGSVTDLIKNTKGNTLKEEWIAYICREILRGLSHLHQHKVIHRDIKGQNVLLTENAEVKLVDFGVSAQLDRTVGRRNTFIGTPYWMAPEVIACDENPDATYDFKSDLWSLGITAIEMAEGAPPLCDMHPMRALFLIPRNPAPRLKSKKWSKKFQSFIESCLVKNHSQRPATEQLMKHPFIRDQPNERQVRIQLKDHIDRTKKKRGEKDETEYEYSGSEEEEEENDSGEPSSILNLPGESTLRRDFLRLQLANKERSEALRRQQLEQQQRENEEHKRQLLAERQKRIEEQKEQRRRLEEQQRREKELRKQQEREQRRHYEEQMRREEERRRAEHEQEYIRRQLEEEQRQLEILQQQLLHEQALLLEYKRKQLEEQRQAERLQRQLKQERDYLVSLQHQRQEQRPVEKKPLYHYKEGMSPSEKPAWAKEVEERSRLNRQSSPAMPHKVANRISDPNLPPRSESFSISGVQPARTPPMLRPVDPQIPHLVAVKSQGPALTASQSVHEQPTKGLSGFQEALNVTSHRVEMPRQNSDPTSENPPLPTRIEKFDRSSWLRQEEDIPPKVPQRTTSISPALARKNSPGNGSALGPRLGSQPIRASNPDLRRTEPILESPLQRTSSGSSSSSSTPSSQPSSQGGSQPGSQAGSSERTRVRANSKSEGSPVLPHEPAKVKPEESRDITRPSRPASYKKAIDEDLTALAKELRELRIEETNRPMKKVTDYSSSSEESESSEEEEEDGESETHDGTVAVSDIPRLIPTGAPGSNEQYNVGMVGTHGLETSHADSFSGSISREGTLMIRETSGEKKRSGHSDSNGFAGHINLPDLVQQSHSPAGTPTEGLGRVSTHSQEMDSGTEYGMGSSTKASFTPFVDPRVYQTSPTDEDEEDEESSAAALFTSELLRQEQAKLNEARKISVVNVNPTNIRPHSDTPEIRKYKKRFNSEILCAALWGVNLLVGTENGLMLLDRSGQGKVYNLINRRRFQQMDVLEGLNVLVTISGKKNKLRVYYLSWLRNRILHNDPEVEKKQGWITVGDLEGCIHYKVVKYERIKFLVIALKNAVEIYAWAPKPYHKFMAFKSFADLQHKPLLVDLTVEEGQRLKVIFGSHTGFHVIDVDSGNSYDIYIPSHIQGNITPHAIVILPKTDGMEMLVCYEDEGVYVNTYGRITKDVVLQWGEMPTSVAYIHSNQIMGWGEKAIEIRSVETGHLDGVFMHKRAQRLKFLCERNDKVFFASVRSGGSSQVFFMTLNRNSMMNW
SMILES,target or system,test,system,conditions,endpoint,value
CC(=O)N[C@@H](CCC(N)=O)C(=O)N[C@@H](Cc1ccccc1)C(=O)N[C@@H](CCCNC(=N)N)C(=O)c1nccs1,TMPRSS2,"enzyme activity, inhibitor",,1 nM,activity vs control,95%
COC(=O)c1cc(-c2cccc(NC(=O)Nc3cccc(Br)c3)c2)on1,Pseudomonas aeruginosa,"microbial growth, broth dilution",ATCC27853,,MIC,> 64 µg/mL
CC(C)CC(=O)N[C@@H](CCC(N)=O)C(=O)N[C@@H](Cc1ccccc1)C(=O)N[C@@H](CCCNC(=N)N)C(=O)c1nc2ccccc2s1,TMPRSS2,"enzyme activity, inhibitor",,1 nM,activity vs control,14%
COc1ncccc1-c1cnn2ccc(N3CCN(C(=O)OC(C)C)CC3)nc12,"Serine/threonine-protein kinase ULK1 (ULK1, Homo sapiens, UniProt O75385)","binding, competition with immobilised ligand",,1 µM,remaining binding,94%
CC(=O)N[C@@H](CCC(N)=O)C(=O)N[C@@H](Cc1ccccc1)C(=O)N[C@H](CCNC(=N)N)CC(=O)c1nc2ccccc2s1,TMPRSS2,"enzyme activity, inhibitor",,1 nM,activity vs control,101%
Cc1cccc(C(=O)N2CCN(Cc3cccc(NC(=O)c4cccs4)c3)CC2)c1,PFF0160c,"enzyme activity, inhibitor, absorbance",,,IC50,2430 nM
Cc1nn(C)cc1-c1nc2c(N3CCN(Cc4ccc(Cl)cc4)CC3)c(Cl)cnc2[nH]1,"TRAF2 and NCK-interacting protein kinase (TNIK, Homo sapiens, UniProt Q9UKE5)","binding, competition with immobilised ligand",,1 µM,remaining binding,93%
NCCc1c[nH]c2ccc(O)cc12,"Procathepsin L (CTSL, Homo sapiens, UniProt P07711)","enzyme activity, inhibitor",,100 µM,remaining activity,44.2%
CC(C)CC(=O)OC[C@H]1O[C@@](C#N)(c2ccc3c(N)ncnn23)[C@H](O)[C@@H]1O,"Cysteinyl leukotriene receptor 1 (CYSLTR1, Homo sapiens, UniProt Q9Y271)",cell-free assay,,20 µM,inhibition,-7%
CN1CCC[C@H]1c1cccnc1,"Beta-1 adrenergic receptor (ADRB1, Homo sapiens, UniProt P08588)",ligand displacement,,50 µM,inhibition,-6.55%
Nc1ncc(-c2nc(N3CCOCC3)nc(N3CCOCC3)n2)c(C(F)F)n1,"Serine/threonine-protein kinase 35 (STK35, Homo sapiens, UniProt Q8TDR2)","binding, competition with immobilised ligand",,10 µM,remaining binding,55%
C#Cc1n[nH]c2c(-c3cn(C(C)c4ccccn4)c(=O)[nH]c3=O)cc(F)cc12 (stereo not drawn),"Ribosomal protein S6 kinase alpha-1 (RPS6KA1, Homo sapiens, UniProt Q15418)","enzyme activity, inhibitor",,1 µM,inhibition,8.5%
Cc1nc(Nc2ccc(C)c(Cl)c2)c2c(C)noc2n1,PFF0160c,"enzyme activity, inhibitor, absorbance",,,IC50,267 nM
C[C@H]1COc2c(N3CCN(C)CC3)c(F)cc3c(=O)c(C(=O)O)cn1c23,Pseudomonas aeruginosa,"microbial growth, broth dilution",ATCC27853,,MIC,1 µg/mL
[2H]c1c([2H])c([C@]2([2H])CCCN2C(=O)C(C)(C)Oc2ccc3cn[nH]c3c2)c([2H])c([2H])c1C([2H])([2H])[2H],"Serine/threonine-protein kinase N2 (PKN2, Homo sapiens, UniProt Q16513)","binding, competition with immobilised ligand",,1 µM,remaining binding,73%

# A few entries again:
SMILES,target or system,test,system,conditions,endpoint,value
COc1ncccc1-c1cnn2ccc(N3CCN(C(=O)OC(C)C)CC3)nc12,"Serine/threonine-protein kinase ULK1 (ULK1, Homo sapiens, UniProt O75385)","binding, competition with immobilised ligand",,1 µM,remaining binding,94%
CC(=O)N[C@@H](CCC(N)=O)C(=O)N[C@@H](Cc1ccccc1)C(=O)N[C@H](CCNC(=N)N)CC(=O)c1nc2ccccc2s1,TMPRSS2,"enzyme activity, inhibitor",,1 nM,activity vs control,101%
